Experimental data from different studies.
Numbers after ± are the reported error.
Sequence of UniProt P49760 (whole entry, looked up): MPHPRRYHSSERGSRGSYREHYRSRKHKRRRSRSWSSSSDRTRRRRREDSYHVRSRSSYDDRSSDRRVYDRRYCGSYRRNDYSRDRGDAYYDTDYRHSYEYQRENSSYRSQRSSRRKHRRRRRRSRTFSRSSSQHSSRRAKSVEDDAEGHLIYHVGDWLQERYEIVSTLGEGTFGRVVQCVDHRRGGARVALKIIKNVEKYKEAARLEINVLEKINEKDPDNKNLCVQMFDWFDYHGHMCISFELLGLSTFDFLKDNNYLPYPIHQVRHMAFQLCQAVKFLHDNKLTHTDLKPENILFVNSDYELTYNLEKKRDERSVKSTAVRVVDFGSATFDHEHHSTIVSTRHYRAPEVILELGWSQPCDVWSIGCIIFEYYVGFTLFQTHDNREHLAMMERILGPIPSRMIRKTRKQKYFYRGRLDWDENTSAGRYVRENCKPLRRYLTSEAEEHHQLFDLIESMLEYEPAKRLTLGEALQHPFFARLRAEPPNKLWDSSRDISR
Sequence of UniProt P48357 (whole entry, looked up): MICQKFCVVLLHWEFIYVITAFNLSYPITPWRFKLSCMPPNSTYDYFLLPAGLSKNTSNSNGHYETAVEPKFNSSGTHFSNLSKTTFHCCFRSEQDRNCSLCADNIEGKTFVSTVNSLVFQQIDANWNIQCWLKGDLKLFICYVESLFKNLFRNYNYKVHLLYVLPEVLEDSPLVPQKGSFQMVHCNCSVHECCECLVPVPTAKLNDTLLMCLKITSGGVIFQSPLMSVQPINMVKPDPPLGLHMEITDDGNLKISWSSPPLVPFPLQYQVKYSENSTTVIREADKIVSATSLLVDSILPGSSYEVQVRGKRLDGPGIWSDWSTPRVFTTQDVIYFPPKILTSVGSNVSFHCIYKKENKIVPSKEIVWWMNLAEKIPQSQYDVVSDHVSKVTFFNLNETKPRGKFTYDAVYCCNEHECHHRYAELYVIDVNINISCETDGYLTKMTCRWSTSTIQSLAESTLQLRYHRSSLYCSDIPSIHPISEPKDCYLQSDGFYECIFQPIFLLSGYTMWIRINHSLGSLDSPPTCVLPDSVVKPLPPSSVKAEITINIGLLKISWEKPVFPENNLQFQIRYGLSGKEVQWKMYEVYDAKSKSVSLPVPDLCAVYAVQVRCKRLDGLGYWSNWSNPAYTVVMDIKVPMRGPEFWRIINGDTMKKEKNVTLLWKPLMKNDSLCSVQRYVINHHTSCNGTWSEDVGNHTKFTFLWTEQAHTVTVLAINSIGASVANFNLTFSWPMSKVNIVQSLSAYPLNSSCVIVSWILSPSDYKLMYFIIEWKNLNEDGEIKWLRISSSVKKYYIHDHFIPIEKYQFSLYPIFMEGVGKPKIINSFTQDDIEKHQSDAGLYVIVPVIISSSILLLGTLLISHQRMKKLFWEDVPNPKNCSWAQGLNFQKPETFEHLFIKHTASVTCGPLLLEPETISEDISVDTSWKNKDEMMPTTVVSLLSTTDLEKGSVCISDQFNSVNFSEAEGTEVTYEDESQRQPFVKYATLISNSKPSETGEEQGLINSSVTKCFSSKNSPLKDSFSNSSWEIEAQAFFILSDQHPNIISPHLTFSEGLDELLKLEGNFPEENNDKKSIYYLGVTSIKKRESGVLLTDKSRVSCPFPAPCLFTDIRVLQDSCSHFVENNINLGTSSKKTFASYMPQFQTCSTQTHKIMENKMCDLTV
Sequence of UniProt Q15046 (whole entry, looked up): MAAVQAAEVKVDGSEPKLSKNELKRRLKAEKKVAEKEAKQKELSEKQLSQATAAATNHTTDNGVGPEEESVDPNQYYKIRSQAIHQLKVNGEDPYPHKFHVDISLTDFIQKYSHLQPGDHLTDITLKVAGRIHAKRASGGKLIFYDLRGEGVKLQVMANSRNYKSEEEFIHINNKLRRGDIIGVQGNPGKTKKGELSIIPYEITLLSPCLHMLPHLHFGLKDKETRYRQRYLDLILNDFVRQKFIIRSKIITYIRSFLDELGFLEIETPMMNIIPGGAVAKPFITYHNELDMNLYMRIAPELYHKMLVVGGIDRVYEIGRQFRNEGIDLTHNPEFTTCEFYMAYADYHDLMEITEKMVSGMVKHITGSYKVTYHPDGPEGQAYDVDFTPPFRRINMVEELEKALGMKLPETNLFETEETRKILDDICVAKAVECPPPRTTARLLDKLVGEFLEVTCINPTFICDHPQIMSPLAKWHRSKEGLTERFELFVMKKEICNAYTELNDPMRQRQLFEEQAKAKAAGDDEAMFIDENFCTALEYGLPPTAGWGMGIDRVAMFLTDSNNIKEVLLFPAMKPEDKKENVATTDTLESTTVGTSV

| Compound | tested on | assay | test system | setting | scale | quantity | result |
| --- | --- | --- | --- | --- | --- | --- | --- |
| COc1ccc2c(c1OC)C(=O)c1c(cc(C)c(O)c1OC)C2=O | HepaRG co-cultured with HK-2 | MTT | – | 133.33 µM, 48 h | relative to: untreated control | cell viability | 75 ± 10.6% |
| COc1ccc(N2C(=O)N(c3c(C)cccc3Cl)Cc3cnc(Nc4ccc(C5CCN(C)CC5)cc4OC)nc32)nc1 | Dual specificity protein kinase CLK2 (CLK2, Homo sapiens, UniProt P49760) | kinase activity | – | 0.5 µM | – | inhibition | 6% |
| CC[C@H](C)[C@H](NC(=O)[C@H](Cc1ccccc1)NC(=O)[C@H](CCC(=O)O)NC(=O)[C@H](CCCNC(=N)N)NC(=O)[C@H](C)NC(=O)[C@H](C)NC(=O)[C@H](CCC(N)=O)NC(=O)[C@H](CCC(=O)O)NC(=O)[C@H](CCC(=O)O)NC(=O)[C@H](CC(C)C)NC(=O)[C@H](Cc1ccc(O)cc1)NC(=O)[C@H](CO)NC(=O)[C@H](CO)NC(=O)[C@@H](NC(=O)[C@H](CC(=O)O)NC(=O)[C@H](CO)NC(=O)[C@@H](NC(=O)[C@H](Cc1ccccc1)NC(=O)[C@@H](NC(=O)CNC(=O)[C@H](CCC(=O)O)NC(=O)[C@H](C)NC(=O)CCc1c[nH]cn1)[C@@H](C)O)[C@@H](C)O)C(C)C)C(=O)N[C@@H](C)C(=O)N[C@@H](Cc1c[nH]c2ccccc12)C(=O)N[C@@H](CC(C)C)C(=O)N[C@H](C(=O)N[C@@H](CCCNC(=N)N)C(=O)NCC(=O)N[C@@H](CCCNC(=N)N)C(=O)N[C@@H](CCCCNC(=O)COCCOCCNC(=O)COCCOCCNC(=O)CC[C@H](NC(=O)CCCCCCCCCCCCCCCCC(=O)O)C(=O)O)C(=O)NCC(=O)NCC(=O)N[C@@H](CO)C(=O)N[C@@H](CCCCNc1c(NCCCCCN(O)C(=O)CCC(=O)NCCCCCN(O)C(=O)CCC(=O)NCCCCCN(O)C(C)=O)c(=O)c1=O)C(=O)O)C(C)C [zirconium-89 labelled] | – | – | rat, brain | iv, 3 nmol/kg, 72 h, ex vivo | – | tissue uptake | 0.01 %ID/g |
| Cc1cc(C(=O)NC(C)(C)COc2cccc3c2C(N)=NS(=O)(=O)N3)cc(C)n1 | Salmonella typhimurium | Ames test, initial | TA100 | 5.00 µg/plate, added: rat liver S9 | relative to: solvent control | revertant ratio | 1.4 |
| C[C@H]1CN(c2n[nH]c3nc(N[C@H]4CC[C@H](NS(=O)(=O)CCC(F)(F)F)CC4)ncc23)CCO1 | Lysine--tRNA ligase (KARS1, Homo sapiens, UniProt Q15046) | Kinobeads competition, measured: KARS | – | 0.032 µM, unit not given | relative to: vehicle | remaining binding | 1.01 |
| O=c1ccc2ccccc2o1 | HepG2 | measured: IL-8 | – | 24 h | – | point of departure | 801 µM |
| CCc1ccc(CC/C=C/c2ccc3c(c2)C(=O)CC3)cc1 | – | – | Sprague-Dawley rat, female | oral, 120 mg/kg/day, 14 days | – | Reticulocyte percentage | 2.19% |
| COc1cc(Nc2ncc(F)c(Nc3ccc4c(n3)NC(=O)C(C)(C)O4)n2)cc(OC)c1OC | Leptin receptor (LEPR, Homo sapiens, UniProt P48357) | – | – | – | – | IC50 | > 10 µM |
| C[C@]1(CO)Cc2ncn(-c3ccc(C#N)c(Cl)c3)c2C(=O)O1 | – | – | healthy humans | oral, 10 mg | relative to: fasted | AUC0–∞ ratio fed over fasted | 103% |
| CC(=O)N1CCC(C(=O)N2CCN3C(=O)c4cc(-c5ccccc5)ccc4NC(=O)C3C2)CC1 (stereo not shown) | Escherichia coli | – | WP2 uvrA | 50 µg/plate, with rat liver S9 | relative to: vehicle | revertant fold increase | 1.3 |
| CO[C@H]1C[C@@H]2CC[C@@H](C)[C@@](O)(O2)C(=O)C(=O)N2CCCC[C@H]2C(=O)O[C@H]([C@H](C)C[C@@H]2CC[C@@H](OC(=O)NCCOCCOCCOCCOCCOCCOCCOCCOCCC(=O)N3CCc4cc(Cn5nc(-c6ccc7oc(N)nc7c6)c6c(N)ncnc65)ccc4C3)[C@H](OC)C2)C[C@@H](O)[C@H](C)/C=C(\C)[C@@H](O)[C@@H](OC)C(=O)[C@H](C)C[C@H](C)/C=C/C=C/C=C/1C | – | – | patients with advanced solid tumours | intravenous, 12 mg weekly, grade 3 or higher | – | AE leading to dose interruption | 25% |
| CC(=O)OC[C@H]1O[C@@H](Oc2cc(O)cc3cc4oc(C)cc(=O)c4c(O)c23)[C@H](O)[C@@H](O)[C@@H]1O | HepaRG co-cultured with HK-2 | MTT | – | 16.67 µM, 48 h | relative to: untreated control | cell viability | 123 ± 13.9% |
| CC[C@H](C)[C@@H]1NC(=O)[C@@H]2CCCN2C(=O)[C@H](CC(C)C)NC(=O)[C@H](CC(C)C)NC(=O)CNC(=O)[C@@H](NC(=O)[C@@H](NC(=O)[C@H](CC(=O)O)NC(=O)CNC(=O)[C@@H](NC(=O)[C@H](C)NC(=O)CNC(=O)[C@H](CCCCN)NC(=O)[C@H](CC(C)C)NC(=O)[C@H](CC(C)C)NC(=O)[C@H](CCCCN)NC(=O)CNC(=O)[C@@H](NC(=O)[C@@H](N)CC(C)C)C(C)C)C(C)C)C(C)C)CSSC[C@@H](C(=O)O)NC1=O | – | RNA-seq, measured: Rassf4 | mouse, traumatic brain injury model, frontal cortex and hippocampus | dose not given | relative to: TBI alone | log2 fold change | -0.724 |
| CC(C)CC(=O)OC[C@H]1O[C@@](C#N)(c2ccc3c(N)ncnn23)[C@H](O)[C@@H]1O | ATP-dependent translocase ABCB1 (ABCB1, Homo sapiens, UniProt P08183) | – | Caco-2 | 9 µM, added: zosuquidar 25 µM | – | Papp A to B | 0.366 ×10⁻⁶ cm/s |
| O=C1c2ccccc2C(=O)c2ccccc21 | HepaRG co-cultured with HK-2 | MTT | – | 33.33 µM, 48 h | relative to: untreated control | cell viability | 79.7 ± 11.8% |
| COc1cc2c(Oc3ccc4[nH]c(C)cc4c3F)ccnc2cc1OCC1(N)CC1 | – | – | paediatric refractory sarcoma patients | 12 mg | – | grade 1-2 T-wave abnormality | 9.1% |

Excerpt of the above:
| Compound | tested on | assay | test system | setting | scale | quantity | result |
| --- | --- | --- | --- | --- | --- | --- | --- |
| COc1ccc2c(c1OC)C(=O)c1c(cc(C)c(O)c1OC)C2=O | HepaRG co-cultured with HK-2 | MTT | – | 133.33 µM, 48 h | relative to: untreated control | cell viability | 75 ± 10.6% |
